Measurements of several laboratories.
Each line is one published result; not all experiments were run side by side. Values joined by “and” are separate records of one study, mostly repeats; a detail may differ. ± gives the spread as reported. Values after ≈ are worked out from the molar mass of the structure shown.

`Cc1ccc(C(=O)c2sc(S)c(-c3nc4ccccc4s3)c2N)cc1`: “viral titre reduction” 20% (hepatitis A virus; plaque reduction; HM 175; non-toxic concentration).
For `OC(CNc1cccc(Cl)c1)CN1c2ccccc2Sc2ccccc21` (stereo not drawn), the EC50 was greater than 10000 nM (HIV-1; cytopathicity, XTT; CEM-SS, RF; 6 days).
For `CCCCNC(CCCC)CSS(=O)(=O)O` (stereo not drawn), “total worms recovered” read 65 worms per mouse and 66 worms per mouse and 64 worms per mouse (Schistosoma mansoni; mice; daily x4, 100 mg/kg, from day 11, perfusion day 25).
For `CN(Cc1ccc(C2(C(F)(F)F)CCC2)cc1)Cc1cccc2ccccc12`, the inhibition zone was 41 mm (Trichophyton rubrum; microbial growth, disc diffusion; ATCC28188; 0.064 µg/mL, 6 days).
`CC(=O)O[C@@H]1[C@@H](OC(C)=O)[C@H](Sc2sc(C(=O)c3ccc(Cl)cc3)c(N)c2-c2nc3ccccc3s2)OC[C@H]1OC(C)=O` gave a viral reduction of 10% (hepatitis A virus; plaque reduction; HM 175; non-toxic dose NG, mean over three titres).
For `CCCCCCCCCC(=O)N[C@@H](Cc1c[nH]c2ccccc12)C(=O)N[C@H](CC(N)=O)C(=O)N[C@@H](CC(=O)O)C(=O)N[C@@H]1C(=O)NCC(=O)N[C@@H](CCCNC(=O)OC2/C=C/CCCCC2)C(=O)N[C@@H](CC(=O)O)C(=O)N[C@H](C)C(=O)N[C@@H](CC(=O)O)C(=O)NCC(=O)N[C@H](CO)C(=O)N[C@@H]([C@H](C)CC(=O)O)C(=O)N[C@@H](CC(=O)c2ccccc2N)C(=O)O[C@@H]1C` (stereo partly drawn), “peak heat flow time” read 0 h (Staphylococcus aureus; planktonic bacterial growth, isothermal microcalorimetry; MRSA; 2.5 µg/mL, 24 h, 37 °C, together with: TAG hydrogel).
With `c1ccc(CN2CCOCCOCCN(CCCCCCCCCCCCN3CCOCCOCCN(CCCCCCCCCCCCN4CCOCCOCCN(Cc5ccccc5)CCOCCOCC4)CCOCCOCC3)CCOCCOCC2)cc1` the fold enhancement was 4 fold (Klebsiella pneumoniae; ciprofloxacin activity; ATCC BAA-2146; half MIC, together with: ciprofloxacin; baseline: ciprofloxacin alone).
`CC(C)(C)NCC(SS(=O)(=O)O)c1ccccc1` (stereo not drawn): “male worms recovered” 36 worms per mouse and 14 worms per mouse and 11 worms per mouse and 21 worms per mouse and 18 worms per mouse (Schistosoma mansoni; mice; 600 mg/kg single dose, dosed day 7, perfused 44).
With `CN(C(=O)[C@H](Cc1ccccc1)NC(=O)Cc1c[nH]c2ccc(O)cc12)c1ccccc1` the EC50 was 380 ± 70 nM (HIV-1; infectivity of progeny virus; HEK293FT, NL4-3).
The germination rate of `Cc1cccc2c1N(C(=O)n1ccnn1)CC2` is reported as 72% and 75% and 67.4% and 64.5% and 60% and 74.3% (Arabidopsis thaliana; kai2 mutant, seeds; 1 µM, 72 h).
With `CCC1(CC)CC(=O)N(C2c3cc(C(=O)NC4c5ccccc5CC4O)ccc3OC2(C)COC)C(=N)N1` (stereo not drawn) the lag phase was 24 h (Plasmodium falciparum; 3D7; 10 × EC50, 120 h).
`CC(=O)O[C@@H]1[C@@H](OC(C)=O)[C@H](Sc2sc(C(=O)c3ccc(C)cc3)c(N)c2-c2nc3ccccc3s2)OC[C@H]1OC(C)=O` gave a viral reduction of 20% (hepatitis A virus; plaque reduction; HM 175; non-toxic dose NG, mean over three titres).
`C=C(NC(=O)c1csc(-c2nc3c(cc2O)-c2nc(cs2)C(=O)NC(C(C)O)C(=O)NC(=C(C)OC)c2nc(cs2)C(=O)NC2c4nc(cs4)C(=O)NC(COC(=O)c4c5c6c(cccc6n4O)COC(=O)C(OC4CC(C)(O)C(N(C)C)C(C)O4)C2OC5)c2nc-3cs2)n1)C(N)=O` (stereo not drawn) has an MIC90 of 0.0156 µg/mL (≈ 0.0109 µM) (Streptococcus pyogenes; microbial growth; clinical isolate).
`CC1(C)[C@H](NC(=O)/C(=N\OCc2c(Cl)cccc2Cl)c2nsc(N)n2)C(=O)N1OS(=O)(=O)O` gave an MIC of 1 µg/mL (≈ 1.85 µM) (Proteus mirabilis; agar dilution; ATCC 49565, susceptible).
The MIC of `CC1C=CC=CC(C)C2C=CC3CC(C)(O)C(Cl)C(C)C3C2C(=O)C(Cl)(Cl)C(=O)C(C)C(=O)O1` (stereo not drawn) is reported as 0.05 µg/mL (≈ 0.094 µM) (Staphylococcus aureus; MRSA clinical isolate; resistant: OXA,CIP,ERY,GEN,LVX,MXF,SXT,TOB).
`COc1ccccc1NC(=O)OC1C(C)C(OC)C=COC2(C)Oc3c(C)c(O)c4c(c3C2=O)C2=NC3(CCN(CC(C)C)CC3)NC2=C(NC(=O)C(C)=CC=CC(C)C(O)C(C)C(O)C1C)C4=O` (stereo not drawn) gave an IC90 of 120 nM (Mycobacteroides abscessus; intracellular growth, Hill fit; THP-1 derived macrophages, ATCC 19977).
`CC(=O)OC[C@H]1O[C@@H](Sc2sc(C(=O)c3ccc(Br)cc3)c(N)c2-c2nc3ccccc3s2)[C@H](OC(C)=O)[C@@H](OC(C)=O)[C@H]1OC(C)=O` gave a viral reduction of 20% (hepatitis A virus; plaque reduction; HM 175; non-toxic dose NG, mean over three titres).
`C[C@@H]1C(=O)O[C@@H](C)/C=C/C=C\[C@@H](C)[C@@H]2C=C[C@@H]3C[C@@]4(C)O[C@H]4[C@@H](C)[C@H]3[C@@H]2C(=O)C(Cl)(Cl)C1=O` has an MIC of 0.1 µg/mL (≈ 0.202 µM) (Staphylococcus aureus; MRSA clinical isolate; resistant PEN/CIP/MXF).
`FC(F)(F)c1cccc(CNc2nc(NC3CCN(Cc4ccccc4)CC3)c3nc[nH]c3n2)c1` — result for “log2 fold change”: 0.077 (Cryptococcus neoformans; RNA-seq, measured: KCS1 (CNAG_02897) mRNA; 48 µg/mL, 3 h; baseline: untreated wild type).
`OC(Cn1cncn1)(Cn1cc(-[c-]2cccc2)nn1)c1ccc(F)cc1F.[Cl-].[Co+3].c1cc[cH-]c1` (racemic) has an inhibition of 6% (Brugia pahangi; motility, Worminator; adult female; 50 µM, 2 d).
`Cc1ccc(N(C)C(=O)[C@H](Cc2ccccc2)NC(=O)Cc2c[nH]c3ccc(O)cc23)cc1` has an EC50 of 35 ± 4 nM (HIV-1; viral replication).
`Fc1ccc2c(c1)c1nc3ccc(Br)cc3c-1cn2Cc1cn(-c2ccccc2I)nn1` has a fold change of 1.82 (Giardia duodenalis; UHPLC-Q-TOF-MS, measured: PC(O-18:0/2:0); trophozoites; IC50, 0.1963 h; baseline: 0.25% DMSO).
The viral reduction of `CC(=O)O[C@@H]1[C@@H](OC(C)=O)[C@H](Sc2sc(C(=O)c3ccc(Br)cc3)c(N)c2-c2nc3ccccc3s2)OC[C@@H]1OC(C)=O` is reported as 20% (hepatitis A virus; plaque reduction; HM 175; non-toxic dose NG, mean over three titres).
With `CCCOC(=O)N1c2cc(CNC)ccc2[C@H](NC(=O)C(=O)Nc2ccc(Cl)c(F)c2)[C@H]1CNC(=N)N` the IC50 was 11000 nM (HIV-1; pseudovirus infection, Env pseudovirus neutralisation; TZM-bl, clade C T/F isolate 2A2).
Under “mean worms recovered”, `CCCCC(CSS(=O)(=O)O)NCC(C)C` (stereo not drawn) is recorded as 64 worms per mouse (Schistosoma mansoni; infected mice; 100 mg/kg x4, dosed from day 11, perfusion day 25).
For `Nc1c(C(=O)c2ccc(Br)cc2)sc(S)c1-c1nc2ccccc2s1`, “viral titre reduction” read 0% (hepatitis A virus; plaque reduction; HM 175; non-toxic concentration).
For `CC1=C(Cn2cc(CN3CCC(F)(F)CC3)nn2)C(=O)c2ccccc2C1=O`, the killing was 43.1% (Schistosoma mansoni; adult worms; 25 µM, 24 h).
The EC50 of `CCn1c(C)c(CC(=O)N[C@@H](Cc2ccccc2)C(=O)N(C)c2ccc(F)cc2)c2ccccc21` is reported as 540 ± 30 nM (HIV-1; infectivity of progeny virus; HEK293FT, NL4-3).
For `C=C[C@]1(C)C[C@@H](OC(=O)CSc2ccc(NC(=O)c3ccco3)cc2)[C@]2(C)[C@H](C)CC[C@]3(CCC(=O)[C@H]32)[C@@H](C)[C@@H]1O`, “air sac lesion score” read 3 and 1 and 2 (Mycoplasma gallisepticum; infected chickens; intramuscular, 5 mg/kg daily x3, scale 0 to 4; direction not given).
The EC50 of `CN(C(=O)[C@H](Cc1ccccc1)NC(=O)Cc1c[nH]c2ccc(O)cc12)c1ccc(Cl)cc1` is reported as 170 ± 20 nM (HIV-1; infectivity of progeny virus; HEK293FT, NL4-3).
`O=C(NCC(O)(Cn1cncn1)c1ccc(F)cc1F)[c-]1cccc1.[Cl-].[Co+3].c1cc[cH-]c1` (racemic) has an inhibition of 0% (Brugia pahangi; motility, Worminator; adult female; 50 µM, 1 d).
`Cc1cc(C(=O)Nc2nc3cccc(C)c3n2[C@H]2CCCCN(C(=O)/C=C/CN(C)C)C2)ccn1`: “minimum cidal concentration” 16.7 µM (Trypanosoma brucei; wash-off; 48 h).
With `CC1=C(Cn2cc(CN3CCC(=O)CC3)nn2)C(=O)c2ccccc2C1=O` the IC50 was 950 nM (Schistosoma mansoni; parasite growth; 72 h, larva).
`O=C(Nn1c(-c2cccc(Cl)c2)nc2ccccc2c1=O)c1ccccc1` gave a worm burden of 17 ± 10 worms (Schistosoma mansoni; infected mice; intraperitoneal, 50 mg/kg 1 times daily for 3 days, dosed 7 weeks post-infection).
The MIC of `CC1(C)[C@H](NC(=O)/C(=N\OCC(=O)N2CCC(C(=O)O)C2)c2nsc(N)n2)C(=O)N1OS(=O)(=O)O` (stereo partly drawn) is reported as 1 µg/mL (≈ 1.87 µM) (Proteus mirabilis; agar dilution; ATCC 49565, susceptible).
The viral reduction of `CC(=O)OC[C@H]1O[C@@H](Sc2sc(C(=O)c3ccc(Cl)cc3)c(N)c2-c2nc3ccccc3s2)[C@H](OC(C)=O)[C@@H](OC(C)=O)[C@@H]1OC(C)=O` is reported as 10% (hepatitis A virus; plaque reduction; HM 175; non-toxic dose NG, mean over three titres).
With `[2H]C([2H])([2H])C1(C([2H])([2H])[2H])NC(=O)N(c2ccc(F)c(C(C)(F)F)c2)C1=O` the ED50 was 8 mg/kg and 7.8 mg/kg (Schistosoma mansoni; adult, infected mice; oral, single dose).
`CC(=O)OC[C@H]1O[C@@H](Sc2sc(C(=O)c3ccc(C)cc3)c(N)c2-c2nc3ccccc3s2)[C@H](OC(C)=O)[C@@H](OC(C)=O)[C@H]1OC(C)=O`: “viral titre reduction” 20% (hepatitis A virus; plaque reduction; HM 175; non-toxic concentration).
`CC(C)NCC(SS(=O)(=O)O)c1ccccc1` (stereo not drawn): “total worms recovered” 46 worms per mouse and 26 worms per mouse and 21 worms per mouse (Schistosoma mansoni; mice; daily x4, 100 mg/kg, from day 11, perfusion day 25).
